Published values collected from several papers.
Protocols differ between the studies behind these lines. “And” joins repeats or separate records; there may be more than shown.
Target: TRAF2 and NCK-interacting protein kinase (TNIK, Homo sapiens, UniProt Q9UKE5)

SMILES	read-out	action	method	tested at	baseline	quantity	result
CC(C)=CC1OC(C)(C)C2C=C3C(=O)C(Cl)=CC(O)C3C3C(O)C4OC4C(=O)C132 (stereo not shown)	cell-free assay		competition with immobilised ligand	10 µM		remaining binding	88%
C=CC(=O)N1CCCC(n2c(=O)c3ncccc3n(Cc3ccc(Oc4ccccc4)cc3)c2=O)C1 (stereo not shown)	cell-free assay		competition with immobilised ligand	1 µM		remaining binding	93%
CCN1CCN(Cc2ccc(NC(=O)c3ccc(C)c(NC(=O)c4cncc(-c5cccs5)c4)c3)cc2C(F)(F)F)CC1	binding		competition with immobilised ligand	1 µM		remaining binding	18%
Cc1cnc2nc1Nc1cccc(c1)COC/C=C/COCc1cc(ccc1OCCN1CCOCC1)N2	binding		competition with immobilised ligand	0.1 µM		remaining binding	77%
COc1c(Cl)cccc1Nc1c(-c2ccncc2C#C[C@@]2(C)CCCN2C(=O)/C=C/CN(C)C)[nH]c2c1C(=O)NCC2	binding		competition with immobilised ligand	3 µM		remaining binding	25%
CNC(=O)C1CCN(c2cc(C)c(F)cc2NC(=O)c2ccc(-c3cc(O)ccc3C)c(C)c2)CC1	binding		competition with immobilised ligand	1 µM		remaining binding	99%
NC(=O)[C@@H](O)C[C@H]1CCc2sc3ncnc(O[C@H]4CC[C@H](N5CCOCC5)CC4)c3c21	enzyme activity	inhibitor		10 µM		inhibition	48%
Cc1cccc(O[C@H]2CCC[C@@H](C(C)CNCc3ccncc3)C2)c1 (relative stereo)	enzyme activity	inhibitor		10 µM		inhibition	-1%
CNC(=O)C[C@H](Cc1ccc(C#N)cc1)NC(=O)c1cc(-c2ccc(CN[C@H](C)c3ccc(C)cc3)o2)ccc1Cl	enzyme activity	inhibitor		1 µM		activity vs control	100%
C=CC(=O)Nc1cccc(-c2cnc3[nH]cc(C(=O)NC(C)(C)C)c3n2)c1	kinase activity			0.1 µM		inhibition	37% and 33%
COc1cc(Nc2nc(C)cc(-c3cnn4nc(OC)ccc34)n2)cc(C(F)(F)F)c1	binding		competition with immobilised ligand	1 µM		remaining binding	74%
C=CC(=O)N1CCc2ccc(-n3c(=O)ccc4cnc5ccc(-c6cnn(C)c6)cc5c43)cc21			KINOMEscan	1 µM	DMSO control	remaining binding	83%
CN1CC[C@@H](COc2cnc(C#N)cc2-c2ccn3nc(NC(=O)C4CC4)cc3c2)C1	enzyme activity	inhibitor		1 µM		inhibition	45%

Excerpt of the above:
SMILES	read-out	action	method	tested at	baseline	quantity	result
Cc1cnc2nc1Nc1cccc(c1)COC/C=C/COCc1cc(ccc1OCCN1CCOCC1)N2	binding		competition with immobilised ligand	0.1 µM		remaining binding	77%
COc1c(Cl)cccc1Nc1c(-c2ccncc2C#C[C@@]2(C)CCCN2C(=O)/C=C/CN(C)C)[nH]c2c1C(=O)NCC2	binding		competition with immobilised ligand	3 µM		remaining binding	25%
